Results from different studies.
Lines come from different studies, so protocols differ. ± gives the spread as reported.
CDC48A: CDC48A 1-463 (Arabidopsis thaliana, UniProt P54609)
Chain of UniProt P54609 (whole entry, looked up): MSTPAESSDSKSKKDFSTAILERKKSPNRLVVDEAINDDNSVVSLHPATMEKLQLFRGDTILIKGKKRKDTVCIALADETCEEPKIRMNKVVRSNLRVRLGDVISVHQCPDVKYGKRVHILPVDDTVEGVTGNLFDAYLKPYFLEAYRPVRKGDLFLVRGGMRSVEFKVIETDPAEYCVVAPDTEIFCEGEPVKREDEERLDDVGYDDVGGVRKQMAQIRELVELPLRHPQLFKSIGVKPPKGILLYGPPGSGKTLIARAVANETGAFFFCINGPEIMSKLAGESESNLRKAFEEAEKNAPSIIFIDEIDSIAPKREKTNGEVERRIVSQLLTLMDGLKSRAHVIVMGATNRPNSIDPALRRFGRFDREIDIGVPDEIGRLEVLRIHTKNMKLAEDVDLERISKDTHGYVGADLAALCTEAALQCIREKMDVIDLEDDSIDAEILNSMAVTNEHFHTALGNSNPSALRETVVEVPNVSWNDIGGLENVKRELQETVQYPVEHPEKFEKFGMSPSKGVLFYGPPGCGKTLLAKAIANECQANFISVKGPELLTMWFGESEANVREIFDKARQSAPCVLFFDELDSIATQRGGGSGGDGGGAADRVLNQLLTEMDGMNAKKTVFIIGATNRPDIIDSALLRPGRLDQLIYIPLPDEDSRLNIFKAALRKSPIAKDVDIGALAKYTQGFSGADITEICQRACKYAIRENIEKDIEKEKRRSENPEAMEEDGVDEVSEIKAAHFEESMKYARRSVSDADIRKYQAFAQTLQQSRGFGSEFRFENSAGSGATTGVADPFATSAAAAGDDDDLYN
T1: ATRX ADD domain 167-289 K251R/F284Y/Y203A (Homo sapiens); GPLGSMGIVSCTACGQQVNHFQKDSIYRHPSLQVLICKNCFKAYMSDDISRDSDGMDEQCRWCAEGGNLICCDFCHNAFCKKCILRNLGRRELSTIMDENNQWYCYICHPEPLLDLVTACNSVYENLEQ
T2: ATRX ADD domain 167-289 K251R/F284Y (Homo sapiens); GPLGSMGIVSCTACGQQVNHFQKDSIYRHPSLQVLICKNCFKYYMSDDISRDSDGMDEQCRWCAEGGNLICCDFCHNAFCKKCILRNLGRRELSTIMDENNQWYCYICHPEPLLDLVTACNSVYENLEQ
B1: GIGYF1 33-103 E44A/E45F/Q87A (Homo sapiens, UniProt O75420); chain KYKLADYRYGRAFMLALYVKENKVPEELQDKEFAAVLQDEPLQPLALEPLTEEEARNFSLSVNSVAVLRLM
B2: PUX6 269-435 (Arabidopsis thaliana, UniProt F4IXN6); chain VTYTVTIWRNGFTVDDDPFKSLDDPENAAFLEYMPEDNKFGVPTTTRSTSCSSQTHQELQTLAGSESTSTEPPLTTTQPPSMSSLVVDPAAPTTSIQLILADSTRIVTQFNTHHTIRDIRCFIDTSRPDGSKDYQLLIMGSPPTPLSDFDQTIEKAGIANSVLVQKF
B3: ATG23 full-length, dimer (Saccharomyces cerevisiae, UniProt Q06671); sequence looked up; chain MELNQVLEKKEQILQYLGTLVGLHEKALSDVNSASQVTSIRKDITICLNDLCRINDLLVSHDGLLKREIGSLLRDKQELLELNEREQLLWKERKSWHIKQETDAAPADYVIDKDAIITISSHHRTSLNKYIESVGAENTILSNTDDSDAMIEEVQNAESSADQMIRNYKLLQLSHKQAKSEIIRLETLLRDFKKDNKFIEEELKRQSGRIRSEMGNIDFHLSKIEESKHQLMKRIGFESPLTQEKSLSEKIFNLRLSSADEDYNERQTINMKNFVHMKDLIELKIEDLQEQLMRNKNESSTVLTQRELWLDCQKKVGDLESKLITKLRSSSNSKIPPNEMSEMINSTIQYLNNLLDSSDEKLTTTLISNERDVLSKACEELHSESTTAQDGSSALPSKPIDIHKSHKGSNASSNLKQPSTPSFLVASKSPPKIGISESVVNANKNDAISKKVE
B4: SPP1 (Saccharomyces cerevisiae, UniProt Q03012); chain MSLPQWCPPHSTLKRNPTTGEDVYCICKRPDYGELMVGCDGCDDWFHFTCLHIPEQFKDLVFSFYCPYCQAGITGKNKDAIINGEGSLPKTLWKRKCRISDCYKPCLQDSKYCSEEHGREFVNDIWSRLKTDEDRAVVKKMVEQTGHIDKFKKFGQLDFIDNNIVVKTDDEKEIFDQIVVRDMTLKTLEDDLQEVQEISLPLFKKKLELLEVYLGWLDNVYTEMRKLDDDAASHVECGKEDSKGTKRKKKKNSSRSRARKNICGYCSTYERIPCSVEEFVRDFGSNEEATKIHEVCTKWKCNRHLDWVSTNQEQYLQQIDSLESMQERLQHLIQARKKQLNIQYYEEILRRGL
B5: PUX5 301-421 (Arabidopsis thaliana, UniProt Q7Y175); chain KNPFQGVGRTLGASGSGSSSAPQASSAPMNVAPAPSRGLVVDPAAPTTSIQLRLADGTRLVSRFNNHHTVRDVRGFIDASRPGGSKEYQLLTMGFPPKQLTELDQTIEQAGIANAVVIQKF
B6: SPP1 161-353 (Saccharomyces cerevisiae, UniProt Q03012); chain DNNIVVKTDDEKEIFDQIVVRDMTLKTLEDDLQEVQEISLPLFKKKLELLEVYLGWLDNVYTEMRKLDDDAASHVECGKEDSKGTKRKKKKNSSRSRARKNICGYCSTYERIPCSVEEFVRDFGSNEEATKIHEVCTKWKCNRHLDWVSTNQEQYLQQIDSLESMQERLQHLIQARKKQLNIQYYEEILRRGL
B7: SEPTIN6 (Homo sapiens, UniProt Q14141); sequence looked up; chain MAATDIARQVGEGCRTVPLAGHVGFDSLPDQLVNKSVSQGFCFNILCVGETGLGKSTLMDTLFNTKFEGEPATHTQPGVQLQSNTYDLQESNVRLKLTIVSTVGFGDQINKEDSYKPIVEFIDAQFEAYLQEELKIRRVLHTYHDSRIHVCLYFIAPTGHSLKSLDLVTMKKLDSKVNIIPIIAKADAISKSELTKFKIKITSELVSNGVQIYQFPTDDESVAEINGTMNAHLPFAVIGSTEELKIGNKMMRARQYPWGTVQVENEAHCDFVKLREMLIRVNMEDLREQTHTRHYELYRRCKLEEMGFKDTDPDSKPFSLQETYEAKRNEFLGELQKKEEEMRQMFVQRVKEKEAELKEAEKELHEKFDRLKKLHQDEKKKLEDKKKSLDDEVNAFKQRKTAAELLQSQGSQAGGSQTLKRDKEKKNNPWLCTE
B8: mxt 577-640 (Drosophila melanogaster, UniProt Q9VR35); sequence looked up; chain SRVSYDIEHLLYYSMSPHSWTLPTDWQKMQETAPSILRNKDLQDESQRFDGDKYLASIKTAAKR
Chain of UniProt Q12142 (whole entry, looked up): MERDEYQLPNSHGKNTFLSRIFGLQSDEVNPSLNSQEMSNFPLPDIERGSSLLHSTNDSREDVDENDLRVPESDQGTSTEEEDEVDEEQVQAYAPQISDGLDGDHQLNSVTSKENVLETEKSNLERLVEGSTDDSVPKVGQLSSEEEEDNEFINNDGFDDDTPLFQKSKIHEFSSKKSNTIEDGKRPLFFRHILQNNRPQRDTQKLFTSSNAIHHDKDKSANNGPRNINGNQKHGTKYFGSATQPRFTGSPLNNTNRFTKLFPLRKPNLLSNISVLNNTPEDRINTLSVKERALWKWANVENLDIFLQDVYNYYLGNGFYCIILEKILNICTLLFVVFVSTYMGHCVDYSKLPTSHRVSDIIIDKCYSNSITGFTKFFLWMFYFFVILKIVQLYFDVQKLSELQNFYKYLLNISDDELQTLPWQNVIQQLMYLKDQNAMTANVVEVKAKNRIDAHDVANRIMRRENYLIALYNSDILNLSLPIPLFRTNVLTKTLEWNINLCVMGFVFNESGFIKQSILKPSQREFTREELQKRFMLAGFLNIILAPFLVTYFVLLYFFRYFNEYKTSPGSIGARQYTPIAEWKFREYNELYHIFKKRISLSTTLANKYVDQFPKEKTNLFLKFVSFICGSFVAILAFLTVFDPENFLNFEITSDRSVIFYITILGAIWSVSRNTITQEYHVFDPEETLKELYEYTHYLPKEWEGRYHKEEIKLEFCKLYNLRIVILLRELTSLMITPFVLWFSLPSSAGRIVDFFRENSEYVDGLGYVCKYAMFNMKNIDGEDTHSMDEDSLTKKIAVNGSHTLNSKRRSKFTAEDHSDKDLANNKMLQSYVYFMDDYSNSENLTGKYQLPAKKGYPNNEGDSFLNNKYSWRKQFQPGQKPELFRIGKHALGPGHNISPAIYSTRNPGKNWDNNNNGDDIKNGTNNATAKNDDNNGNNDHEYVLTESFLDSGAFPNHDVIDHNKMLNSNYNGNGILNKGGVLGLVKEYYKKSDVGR
Chain of UniProt P21651 (whole entry, looked up): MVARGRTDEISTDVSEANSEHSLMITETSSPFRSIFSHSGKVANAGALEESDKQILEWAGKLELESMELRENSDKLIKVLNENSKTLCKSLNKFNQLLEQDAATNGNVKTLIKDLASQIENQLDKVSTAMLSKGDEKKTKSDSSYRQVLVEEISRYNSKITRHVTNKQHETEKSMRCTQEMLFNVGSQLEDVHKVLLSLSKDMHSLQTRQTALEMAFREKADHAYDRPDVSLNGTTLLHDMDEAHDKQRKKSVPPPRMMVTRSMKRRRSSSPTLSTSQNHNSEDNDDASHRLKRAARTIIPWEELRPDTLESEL
Chain of UniProt P62258 (whole entry, looked up): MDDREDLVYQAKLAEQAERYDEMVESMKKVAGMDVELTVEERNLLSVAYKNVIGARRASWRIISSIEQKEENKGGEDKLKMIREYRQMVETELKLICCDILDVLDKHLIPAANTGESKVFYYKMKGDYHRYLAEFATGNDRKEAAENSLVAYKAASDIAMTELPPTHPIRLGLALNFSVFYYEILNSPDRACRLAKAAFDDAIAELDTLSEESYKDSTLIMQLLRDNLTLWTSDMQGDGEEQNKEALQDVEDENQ
Chain of UniProt Q4V3D3 (whole entry, looked up): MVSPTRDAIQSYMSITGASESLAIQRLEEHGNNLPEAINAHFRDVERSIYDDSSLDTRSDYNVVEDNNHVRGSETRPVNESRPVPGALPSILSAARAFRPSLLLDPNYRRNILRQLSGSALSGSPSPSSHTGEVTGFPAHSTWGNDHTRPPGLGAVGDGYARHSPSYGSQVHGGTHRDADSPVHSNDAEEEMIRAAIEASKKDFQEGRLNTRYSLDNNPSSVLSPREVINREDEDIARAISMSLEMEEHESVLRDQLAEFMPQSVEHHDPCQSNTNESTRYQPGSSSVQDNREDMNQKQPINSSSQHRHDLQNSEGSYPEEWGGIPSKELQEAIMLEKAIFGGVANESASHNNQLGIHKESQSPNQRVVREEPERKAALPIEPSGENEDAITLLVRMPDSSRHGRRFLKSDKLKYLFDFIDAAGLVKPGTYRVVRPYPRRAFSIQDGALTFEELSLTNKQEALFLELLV
Chain of UniProt P0C0L4 (whole entry, looked up): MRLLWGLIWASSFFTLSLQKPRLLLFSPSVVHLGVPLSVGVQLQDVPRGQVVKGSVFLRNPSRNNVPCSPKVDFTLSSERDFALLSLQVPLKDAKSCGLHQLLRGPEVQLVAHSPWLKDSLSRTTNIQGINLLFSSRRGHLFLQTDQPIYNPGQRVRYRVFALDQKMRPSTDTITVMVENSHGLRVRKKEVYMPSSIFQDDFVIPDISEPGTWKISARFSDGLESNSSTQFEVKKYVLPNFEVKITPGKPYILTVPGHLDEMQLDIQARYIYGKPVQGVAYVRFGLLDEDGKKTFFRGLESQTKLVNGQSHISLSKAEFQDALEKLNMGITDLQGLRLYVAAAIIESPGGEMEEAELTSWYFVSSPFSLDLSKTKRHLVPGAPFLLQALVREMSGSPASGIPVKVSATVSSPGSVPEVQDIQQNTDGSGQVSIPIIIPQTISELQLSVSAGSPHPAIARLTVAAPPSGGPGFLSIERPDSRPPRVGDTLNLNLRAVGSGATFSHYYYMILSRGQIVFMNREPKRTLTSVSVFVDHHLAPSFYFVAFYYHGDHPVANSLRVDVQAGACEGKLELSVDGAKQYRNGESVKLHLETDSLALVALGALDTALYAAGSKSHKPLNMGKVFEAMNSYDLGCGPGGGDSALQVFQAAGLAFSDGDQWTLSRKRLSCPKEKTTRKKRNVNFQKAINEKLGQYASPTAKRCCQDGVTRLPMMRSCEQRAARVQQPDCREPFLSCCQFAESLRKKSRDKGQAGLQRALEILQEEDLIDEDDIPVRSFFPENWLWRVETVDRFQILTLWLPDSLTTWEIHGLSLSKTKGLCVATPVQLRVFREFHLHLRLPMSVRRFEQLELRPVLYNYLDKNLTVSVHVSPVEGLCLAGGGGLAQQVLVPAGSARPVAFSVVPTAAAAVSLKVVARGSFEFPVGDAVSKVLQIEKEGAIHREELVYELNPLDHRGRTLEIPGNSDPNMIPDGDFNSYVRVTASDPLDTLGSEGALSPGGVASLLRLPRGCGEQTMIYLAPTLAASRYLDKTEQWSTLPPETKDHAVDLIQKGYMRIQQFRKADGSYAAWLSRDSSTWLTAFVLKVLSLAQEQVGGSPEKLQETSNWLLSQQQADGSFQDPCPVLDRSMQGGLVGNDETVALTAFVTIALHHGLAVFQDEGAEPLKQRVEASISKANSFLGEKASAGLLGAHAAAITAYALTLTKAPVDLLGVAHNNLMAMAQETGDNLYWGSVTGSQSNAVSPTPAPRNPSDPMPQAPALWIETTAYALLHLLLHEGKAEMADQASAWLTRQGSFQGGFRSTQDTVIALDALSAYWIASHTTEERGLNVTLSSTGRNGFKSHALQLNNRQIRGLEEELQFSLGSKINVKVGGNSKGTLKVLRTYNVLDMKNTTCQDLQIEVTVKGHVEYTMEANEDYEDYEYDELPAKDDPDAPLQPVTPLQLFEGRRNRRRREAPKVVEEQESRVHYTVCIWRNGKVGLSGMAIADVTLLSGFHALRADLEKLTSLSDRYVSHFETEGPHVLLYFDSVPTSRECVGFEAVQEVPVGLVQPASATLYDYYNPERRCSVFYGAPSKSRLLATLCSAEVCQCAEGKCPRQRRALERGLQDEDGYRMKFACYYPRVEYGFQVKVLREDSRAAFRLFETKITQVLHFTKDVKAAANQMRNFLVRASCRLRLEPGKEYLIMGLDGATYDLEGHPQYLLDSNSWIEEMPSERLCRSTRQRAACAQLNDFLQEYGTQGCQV

CHD1 fragment (Saccharomyces cerevisiae) — molecule per partner (nucleosome (Xenopus laevis); EMSA): 1 Chd1:nucleosome
B1 (GIGYF1 33-103 E44A/E45F/Q87A) — molecule per partner (EIF4E2 52-234 Q159S/M161D/R202E (Homo sapiens, UniProt O60573-1); ITC; peptide): 1.01 ± 0.01
Atg23 full-length, dimer (yeast, UniProt Q06671) — molecule per partner (ATG9 864-997 (Saccharomyces cerevisiae, UniProt Q12142); ITC; 20 °C, NaCl 150 mM): 0.79
KYKLADYRYGREEMLALFLKDNKIPSDLLDKEFLPILQ (GIGYF2 35-72 (Homo sapiens, UniProt Q6Y7W6-1)) — molecule per partner (EIF4E2 52-234 (Homo sapiens, UniProt O60573-1); ITC; peptide): 1 ± 0.01
ARTKQTARKSTGGKA (H3C1 1-15; K9me3) — molecule per partner (T1, ATRX ADD domain 167-289 K251R/F284Y/Y203A (Homo sapiens); ITC; peptide): 1.02
GSGAGHETIV — normalised SPR binding response (human SCRIB PDZ3-4 tandem (MBP fusion); surface plasmon resonance; peptide; concentration not given; higher = stronger binding): 46 normalised RU
ARTKQTARKSTG (histone H3 2-13 (UniProt P68431); K4me2; sequence looked up) — molecule per partner (PHD tandem finger domain 364-473 (Physcomitrium patens, UniProt A0A2K1L966); ITC; peptide): 0.88
B2 (PUX6 269-435) — molecule per partner (CDC48A; ITC; 10 °C): 1.3 ± 0.1
Peginesatide — mRNA level (UT7/EPO; RT-qPCR, refers to: THBS1; concentration not given, 90 min, normalized to HPRT1; relative to: vehicle): 2.3 fold
PUX9 (Arabidopsis thaliana, UniProt Q4V3D3) — molecule per partner (CDC48A; ITC; 25 °C): 0.6 ± 0.1
B3 (ATG23 full-length, dimer) — molecule per partner (ATG9 1-255 (Saccharomyces cerevisiae, UniProt Q12142); ITC; 20 °C): 0.8
PMESGICTIV — binding intensity (human SCRIB PDZ3-4 tandem (MBP fusion); automated holdup; peptide, crude extract; concentration not given, uncorrected, unit not given; relative to: biotin control resin, higher = stronger binding): 0.111
B4 (SPP1) — molecule per partner (REC107 41-224 (Saccharomyces cerevisiae, UniProt P21651); SEC-SAXS): 2 per Mer2 tetramer
B5 (PUX5 301-421) — molecule per partner (CDC48A; ITC; 25 °C): 0.9 ± 0.1
ARTKQTARKSTGGKAY (H3C1 1-15; K4me1) — molecule per partner (T2, ATRX ADD domain 167-289 K251R/F284Y (Homo sapiens); ITC; peptide): 0.98
FGA (Homo sapiens, UniProt P02671) — cross-linked residues (MIER2 (Homo sapiens, UniProt Q8N344); cross-linking MS; with: DSSO): K238 to K195
C4b (Homo sapiens, UniProt P0C0L4) — molecule per partner (C4BP/PROS1 mature (human); mass photometry): 3 C4b per C4BP
colistin — MIC (Pseudomonas aeruginosa; clinical isolate RKI 230/10): ≤ 1 µg/mL
B6 (SPP1 161-353) — molecule per partner (REC107 138-224 (Saccharomyces cerevisiae, UniProt P21651); SEC-SAXS): 2 per Mer2 tetramer
PCMTD1/ELOB/ELOC complex (Homo sapiens) — molecule per partner (CUL5/RBX2 (Homo sapiens/Mus musculus); native MS): 1
AATKQTARKS (H3C1 1-10 R2A) — molecule per partner (T2, ATRX ADD domain 167-289 K251R/F284Y (Homo sapiens); ITC; peptide): 1
B7 (SEPTIN6) — molecule per partner (SEPTIN3 (Homo sapiens, UniProt Q9UH03-1); co-sedimentation): 1
YWHAE (Homo sapiens, UniProt P62258) — molecule per partner (FOXO3 residues 248-258, pS253 (Homo sapiens); ITC): 0.9
B8 (mxt 577-640) — molecule per partner (eIF4E1 69-248 I96A/I112A (Drosophila melanogaster, UniProt P48598-2); ITC): 1 ± 0.02

Repeated from above:
B5 (PUX5 301-421) — molecule per partner (CDC48A; ITC; 25 °C): 0.9 ± 0.1
ARTKQTARKSTGGKAY (H3C1 1-15; K4me1) — molecule per partner (T2, ATRX ADD domain 167-289 K251R/F284Y (Homo sapiens); ITC; peptide): 0.98
FGA (Homo sapiens, UniProt P02671) — cross-linked residues (MIER2 (Homo sapiens, UniProt Q8N344); cross-linking MS; with: DSSO): K238 to K195
C4b (Homo sapiens, UniProt P0C0L4) — molecule per partner (C4BP/PROS1 mature (human); mass photometry): 3 C4b per C4BP
